Published values from different studies.
Lines come from different studies, so protocols differ. Numbers after ± are the reported error.
UniProt Q96S44, sequence (whole entry, looked up): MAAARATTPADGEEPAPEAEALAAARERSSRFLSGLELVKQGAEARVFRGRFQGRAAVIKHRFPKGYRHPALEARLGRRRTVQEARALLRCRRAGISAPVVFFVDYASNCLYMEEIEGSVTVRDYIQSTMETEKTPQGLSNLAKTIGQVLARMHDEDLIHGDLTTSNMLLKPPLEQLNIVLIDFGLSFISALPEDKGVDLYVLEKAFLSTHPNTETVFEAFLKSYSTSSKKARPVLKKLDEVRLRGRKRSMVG
UniProt P25105, sequence (whole entry, looked up): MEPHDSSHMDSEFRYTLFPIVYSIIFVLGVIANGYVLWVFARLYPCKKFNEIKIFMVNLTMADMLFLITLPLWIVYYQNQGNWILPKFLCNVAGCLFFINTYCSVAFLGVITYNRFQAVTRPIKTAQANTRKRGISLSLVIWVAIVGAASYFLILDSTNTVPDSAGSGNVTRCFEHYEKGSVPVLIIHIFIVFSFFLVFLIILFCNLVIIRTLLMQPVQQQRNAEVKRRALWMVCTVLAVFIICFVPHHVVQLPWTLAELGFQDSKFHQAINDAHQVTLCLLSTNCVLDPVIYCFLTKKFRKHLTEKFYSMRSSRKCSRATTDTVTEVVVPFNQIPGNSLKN

`CC1(C)[C@H](C(=O)O[C@H](C#N)c2cccc(Oc3ccccc3)c2)[C@@H]1C=C(Br)Br`: “enzyme contribution to clearance” 0.14% (measured: CYP1A2; human, age 1 year, recombinant human CYP1A2; 0.1 µM).
`CC[C@H](C)[C@H](NC(=O)[C@H](Cc1ccccc1)NC(=O)[C@H](CCC(=O)O)NC(=O)[C@H](CCCNC(=N)N)NC(=O)[C@H](C)NC(=O)[C@H](C)NC(=O)[C@H](CCC(N)=O)NC(=O)[C@H](CCC(=O)O)NC(=O)[C@H](CCC(=O)O)NC(=O)[C@H](CC(C)C)NC(=O)[C@H](Cc1ccc(O)cc1)NC(=O)[C@H](CO)NC(=O)[C@H](CO)NC(=O)[C@@H](NC(=O)[C@H](CC(=O)O)NC(=O)[C@H](CO)NC(=O)[C@@H](NC(=O)[C@H](Cc1ccccc1)NC(=O)[C@@H](NC(=O)CNC(=O)[C@H](CCC(=O)O)NC(=O)[C@H](C)NC(=O)CCc1cnc[nH]1)[C@@H](C)O)[C@@H](C)O)C(C)C)C(=O)N[C@@H](C)C(=O)N[C@@H](Cc1c[nH]c2ccccc12)C(=O)N[C@@H](CC(C)C)C(=O)N[C@H](C(=O)N[C@@H](CCCNC(=N)N)C(=O)NCC(=O)N[C@@H](CCCNC(=N)N)C(=O)N[C@@H](CCCCNC(=O)COCCOCCNC(=O)COCCOCCNC(=O)CC[C@H](NC(=O)CCCCCCCCCCCCCCCCC(=O)O)C(=O)O)C(=O)NCC(=O)NCC(=O)N[C@@H](CO)C(=O)N[C@@H](CCCCNC(=O)[C@H](CCCCNC(=O)[C@H](CCCCNc1c(NCCCCCN(O)C(=O)CCC(=O)NCCCCCN(O)C(=O)CCC(=O)NCCCCCN(O)C(C)=O)c(=O)c1=O)Nc1c(NCCCCCN(O)C(=O)CCC(=O)NCCCCCN(O)C(=O)CCC(=O)NCCCCCN(O)C(C)=O)c(=O)c1=O)NC(=O)[C@H](CCCCNc1c(NCCCCCN(O)C(=O)CCC(=O)NCCCCCN(O)C(=O)CCC(=O)NCCCCCN(O)C(C)=O)c(=O)c1=O)Nc1c(NCCCCCN(O)C(=O)CCC(=O)NCCCCCN(O)C(=O)CCC(=O)NCCCCCN(O)C(C)=O)c(=O)c1=O)C(=O)O)C(C)C` [zirconium-89 labelled] has a tissue uptake of 0.023 %ID/g (ex vivo gamma counting; male Sprague-Dawley rats, brain; intravenous, 1 nmol, 24 h).
`CCN1[C@@H](C(=O)NC23CCC(C(=O)O)(CC2)CC3)[C@H](c2cccc(Cl)c2F)[C@]2(C(=O)Nc3cc(Cl)ccc32)C12CCCCC2` gave a Dizziness incidence of 12.5% (patients with advanced solid tumours; oral, 150 mg).
`COc1cc2c(Oc3ccc4[nH]c(C)cc4c3F)ccnc2cc1OCC1(N)CC1`: “grade 1 or 2 Cholesterol elevation” 18.2% (paediatric recurrent refractory sarcoma; 12 mg).
The relative abundance of `C[C@H]1CN(c2n[nH]c3nc(N[C@H]4CC[C@H](NS(=O)(=O)CCC(F)(F)F)CC4)ncc23)CCO1` is reported as 0.95 (TP53RK (Homo sapiens, UniProt Q96S44); inhibitor, Kinobeads competition profiling; 0.16 µM; relative to: vehicle).
For `O[C@H]1CCCN[C@@H]1CCCn1cnc2c(Cl)c(Cl)ccc21`, the nausea prevalence was 8.33% (healthy human; oral, 150 mg multiple doses).
For `CC[C@H](C)[C@H](NC(=O)[C@H](CO)NC(=O)[C@H](C)NC(=O)[C@H](Cc1ccc(OP(=O)(O)O)cc1)NC(=O)[C@H](CCC(=O)O)NC(=O)[C@@H](NC(=O)[C@H](Cc1c[nH]cn1)NC(=O)[C@H](CC(N)=O)NC(=O)[C@H](CC(N)=O)NC(=O)[C@@H]1CCCN1C(=O)[C@H](CCC(=O)O)NC(=O)[C@H](C)NC(=O)[C@H](C)NC(=O)[C@H](CCC(N)=O)NC(=O)[C@@H]1CCCN1C(=O)[C@H](C)NC(=O)[C@@H]1CCCN1C(=O)[C@H](CCCCN)NC(=O)[C@H](CCCCN)NC(=O)CNC(=O)[C@H](CCCCN)NC(=O)[C@@H]1CCCN1C(=O)[C@H](CC(C)C)NC(=O)[C@H](CC(N)=O)NC(=O)[C@H](CC(C)C)NC(=O)[C@H](CC(=O)O)NC(=O)[C@H](C)NC(=O)[C@H](Cc1ccc(OP(=O)(O)O)cc1)NC(=O)[C@@H](NC(=O)[C@@H](NC(=O)[C@@H](N)CC(=O)O)[C@@H](C)CC)[C@@H](C)O)[C@@H](C)O)C(=O)N[C@@H](CCC(N)=O)C(=O)N[C@H](C(=O)N[C@@H](CO)C(=O)O)[C@@H](C)O`, the EC50 was 116 ± 3 nM (PTPN11 (Homo sapiens, UniProt Q06124, R111K); enzyme activity, activator; pH 7.0, 0.2% DMSO, together with: DiFMUP 100 µM, phosphopeptide).
Under “log2 fold change”, `CC[C@H](C)[C@@H]1NC(=O)[C@@H]2CCCN2C(=O)[C@H](CC(C)C)NC(=O)[C@H](CC(C)C)NC(=O)CNC(=O)[C@@H](NC(=O)[C@@H](NC(=O)[C@H](CC(=O)O)NC(=O)CNC(=O)[C@@H](NC(=O)[C@H](C)NC(=O)CNC(=O)[C@H](CCCCN)NC(=O)[C@H](CC(C)C)NC(=O)[C@H](CC(C)C)NC(=O)[C@H](CCCCN)NC(=O)CNC(=O)[C@@H](NC(=O)[C@@H](N)CC(C)C)C(C)C)C(C)C)C(C)C)CSSC[C@@H](C(=O)O)NC1=O` is recorded as -2.22 (RNA-seq, measured: Acp5; mouse, traumatic brain injury model, frontal cortex and hippocampus; dose not given; relative to: TBI alone).
The GI50 of `COc1cc(CCC[P+](c2ccccc2)(c2ccccc2)c2ccccc2)c(OC)c2c1OCO2.[I-]` is reported as -5.97 log M (BT-549; SRB).
`CO[C@H]1C[C@@H]2CC[C@@H](C)[C@@](O)(O2)C(=O)C(=O)N2CCCC[C@H]2C(=O)O[C@H]([C@H](C)C[C@@H]2CC[C@@H](OC(=O)NCCOCCOCCOCCOCCOCCOCCOCCOCCC(=O)N3CCc4cc(Cn5nc(-c6ccc7oc(N)nc7c6)c6c(N)ncnc65)ccc4C3)[C@H](OC)C2)C[C@@H](O)[C@H](C)/C=C(\C)[C@@H](O)[C@@H](OC)C(=O)[C@H](C)C[C@H](C)/C=C/C=C/C=C/1C` has a diarrhoea incidence of 25% (patients with advanced solid tumours; intravenous, 12 mg weekly, any grade).
For `COc1cc(Nc2ncc(F)c(Nc3ccc4c(n3)NC(=O)C(C)(C)O4)n2)cc(OC)c1OC`, the IC50 was > 10000 nM (PTAFR (Homo sapiens, UniProt P25105)).
Under “patients with adverse event”, `C[C@@H]1OC(=O)NN=C1c1ccc(-c2ccc(F)cc2)c(C(F)(F)F)c1` is recorded as 0% (phase I trial, measured: Dyspnoea all grades; human patients; 5 mg once daily).
`Cc1ccccc1NC(=O)Nc1ccc(CC(=O)N[C@@H](CCCCNC(=O)/C=C/c2cccnc2)C(=O)N[C@@H](CCCC(=O)O)C(=O)NC2(C(=O)NCCOCCOCCOCCOCC(=O)N[C@@H](CCCCNC(=S)Nc3ccc(CCCN(CCN4CCN(CC(=O)O)CCN(CC(=O)O)CC4)CP(=O)(O)O)cc3)C(N)=O)CCCCC2)cc1` [gallium-68 labelled] has a dissociation of ~50% (human serum; 2 h, 37 °C, 68Ga-labelled).
`Nc1nc2cc(-c3ccc4ncc(C(=O)N5CCOCC5)n4c3)ccc2o1` — result for “grade ≥3 ALT/AST elevation”: 21% (advanced solid tumour patients; dose not given, drug-related, once-daily dosing; relative to: patients).
`CCCCC1(CCCC)CN(c2ccccc2)c2cc(SC)c(OCC(=O)N[C@@H](C(=O)NCC(=O)O)c3ccccc3)cc2S(=O)(=O)C1` has a serum HDL-C of 56 mg/dL (measured: HDL cholesterol; human, serum; 2.5 mg once daily, day 7).
`Cc1cccc(Cn2nc(C3CC3)c3c(NC(=O)c4cnc5cc(OCCN6CCN(C)CC6)ccn45)cccc32)n1` — result for “adverse events incidence”: 14.3% (measured: Lipase increased; human advanced solid tumours; oral, 400 mg, all-causality).
`[O-][S+]1CCc2nc(N3CCC(c4ncc(Cl)cn4)CC3)nc(NC3(CO)CCC3)c21` (stereo not drawn) — result for “serum alanine aminotransferase”: 19.3 U/L (healthy male humans; 48 mg single dose, after last dose).
Under “treatment-emergent adverse events”, `CC(C)(O)c1cc(Nc2cc(Oc3cn(C4CC4)nc3C3CCOCC3)ccn2)ccn1` is recorded as 0% (Cough; advanced cancer patients, dose escalation; oral, dose not given, 3 weeks on/1 off, all causality grade ≥3).
With `CCCCCOc1ccc(-c2ccc(-c3ccc(C(=O)N[C@H]4C[C@@H](O)[C@@H](OCC[N+](C)(C)C)NC(=O)[C@@H]5[C@@H](O)[C@@H](C)CN5C(=O)[C@H]([C@@H](C)O)NC(=O)[C@H]([C@H](O)[C@@H](O)c5ccc(O)cc5)NC(=O)[C@@H]5C[C@@H](O)CN5C(=O)[C@H]([C@@H](C)O)NC4=O)cc3)cc2)cc1` the alkaline phosphatase was 131 U/L (adult ICU patients, mITT, serum; dose not given, Baseline).
The concentration of `O=C(Nc1cccnn1)N1CCC(=Cc2cccc(Oc3ccc(C(F)(F)F)cn3)c2)CC1` is reported as 31.2 ± 2.4 nM (culture medium without cells; 100 nM, 3 h).
The plasma concentration of `CC(C)[C@H](N)C(=O)NCCCS(=O)(=O)O` is reported as 694 ng/mL (human; oral, 265 mg twice daily, 4 h post-dose, steady state, week 65).

For quick reference, copied from above:
`COc1cc2c(Oc3ccc4[nH]c(C)cc4c3F)ccnc2cc1OCC1(N)CC1`: “grade 1 or 2 Cholesterol elevation” 18.2% (paediatric recurrent refractory sarcoma; 12 mg).
